# Published values from different studies.
# Parts stem from different laboratories: compare values within a part only.

# Series 1 — method: universal PBM; molecule type: double-stranded DNA, one strand shown; matrix: in vitro; concentration: 600 nM; reading: higher = stronger binding
# Target: Sal-like protein 4, full length isoform A (SALL4, Homo sapiens, UniProt Q9UJQ4, residues 1-1053)
# Chain of UniProt Q9UJQ4 (whole entry, looked up): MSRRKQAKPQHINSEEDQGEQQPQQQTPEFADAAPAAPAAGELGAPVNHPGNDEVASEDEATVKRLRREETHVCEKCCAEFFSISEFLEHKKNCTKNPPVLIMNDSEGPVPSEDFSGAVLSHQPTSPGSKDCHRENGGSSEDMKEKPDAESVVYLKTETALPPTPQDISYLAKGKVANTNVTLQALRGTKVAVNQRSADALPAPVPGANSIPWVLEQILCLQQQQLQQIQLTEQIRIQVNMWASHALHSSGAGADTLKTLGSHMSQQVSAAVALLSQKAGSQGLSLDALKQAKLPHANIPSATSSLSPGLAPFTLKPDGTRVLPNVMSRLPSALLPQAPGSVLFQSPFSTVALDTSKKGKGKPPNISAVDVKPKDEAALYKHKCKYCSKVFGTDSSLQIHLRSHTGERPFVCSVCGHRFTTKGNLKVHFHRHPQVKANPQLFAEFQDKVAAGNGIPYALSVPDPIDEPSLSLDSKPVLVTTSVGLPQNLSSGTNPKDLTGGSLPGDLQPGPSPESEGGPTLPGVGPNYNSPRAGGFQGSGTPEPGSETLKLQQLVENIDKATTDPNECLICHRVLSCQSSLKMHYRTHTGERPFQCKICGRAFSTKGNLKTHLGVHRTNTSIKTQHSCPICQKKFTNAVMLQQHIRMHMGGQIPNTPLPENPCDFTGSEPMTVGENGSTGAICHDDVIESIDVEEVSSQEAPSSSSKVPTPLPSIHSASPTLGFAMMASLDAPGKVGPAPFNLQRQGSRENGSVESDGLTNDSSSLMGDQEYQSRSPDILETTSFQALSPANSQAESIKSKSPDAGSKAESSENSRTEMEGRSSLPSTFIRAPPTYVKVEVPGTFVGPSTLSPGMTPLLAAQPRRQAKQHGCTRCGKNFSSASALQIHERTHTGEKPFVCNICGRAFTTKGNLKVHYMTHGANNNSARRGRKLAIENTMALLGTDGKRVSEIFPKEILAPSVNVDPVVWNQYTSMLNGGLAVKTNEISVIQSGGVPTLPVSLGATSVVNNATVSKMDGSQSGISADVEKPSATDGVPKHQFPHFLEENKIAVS
# Setting: 8-mer, flanks averaged, mean of replicates
Strand,E-score
ACGTTAAA,0.288
ACCTGGCC,-0.321
ATCCTGGC,-0.0573
CTTCAGGA,-0.0448

# Series 2 — method: protein-binding microarray; molecule type: double-stranded DNA, one strand shown; matrix: in vitro; concentration: 2540 nM top; setting: 60-bp whole probe; added: salmon DNA 0.4 mg/ml; relative to: random background probes; reading: higher = stronger binding
# Target: Interferon regulatory factor 3, full length, phosphomimetic (IRF3, Homo sapiens, UniProt Q14653, residues 1-427, S386D/S396D/S398D/S402D/T404D/S405D)
# Target sequence (chain): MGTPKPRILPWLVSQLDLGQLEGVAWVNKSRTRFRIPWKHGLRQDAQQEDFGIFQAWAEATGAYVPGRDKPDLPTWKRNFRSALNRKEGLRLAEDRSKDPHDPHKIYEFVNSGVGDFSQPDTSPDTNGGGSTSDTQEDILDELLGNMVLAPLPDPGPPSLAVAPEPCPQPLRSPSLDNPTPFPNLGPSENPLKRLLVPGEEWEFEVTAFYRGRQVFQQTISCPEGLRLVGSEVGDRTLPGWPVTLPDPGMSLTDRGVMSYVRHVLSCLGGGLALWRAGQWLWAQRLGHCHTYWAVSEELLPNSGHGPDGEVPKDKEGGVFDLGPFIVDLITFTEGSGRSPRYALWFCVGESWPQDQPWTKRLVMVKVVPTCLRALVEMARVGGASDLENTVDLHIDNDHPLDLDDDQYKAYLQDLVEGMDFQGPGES
Strand,fitted relative affinity
GCCTAGCACTTAGATCTCAGTTACGATTAGTGCTAGGTCTTGATTCGCTTGACGCTGCTG,0.512 z-score
GCCTAGCACTTCGGTTTCGACTTTCGGTTAGTGCTAGTCTTGATTCGCTTGACGCTGCTG,4.72 z-score
GCCTAGCACTCACCTTTTCACTTTACACTGTGCTAGGTCTTGATTCGCTTGACGCTGCTG,4.56 z-score
GCCTAGCACGACGGTCTCGGACTGGGAACGTGCTAGGTCTTGATTCGCTTGACGCTGCTG,0.142 z-score

# Mixed results
Substance,target,assay,test system,conditions,how to read,measurement,value
GGGAGUUCUACAGUCCGACGAUCUUAAAGUAGAGGAACAAAAAGAAGAACAGAAGGAGUUAGAGAAAUCUGAAAAAGAAGAGGAUGAGGAUGAUGAUAGGAAAUCUGAAGACGUGGAAUUCUCGGGUGUCAAGG,"Fragile X messenger ribonucleoprotein 1, C-terminal low-complexity region (Fmr1, Mus musculus, UniProt P35922)",RNA Bind-n-Seq,"RNA, in vitro","200 nM, whole 134-nt RNA, ends assumed, added: 150 mM KCl","relative to: input library, higher = stronger binding",log2 enrichment,-0.254
"PhoQ, residues 284 288 289 292 302 303 SQSLSM","PhoP, residues 12 14 15 18 19 LHSVW (Escherichia coli, UniProt P23836)","Sort-seq, refers to: YFP reporter",E. coli,"PhoQ-PhoP variant library, added: 10 µM Mg2+","relative to: high Mg2+ state, higher = stronger signaling",fold induction,1.3

# A few entries again (series 1):
Strand,E-score
ACGTTAAA,0.288
